Measurements pooled from the literature.
Numbers after ± are the reported error.
BCHE: Cholinesterase (BCHE, Homo sapiens, UniProt P06276)
Sequence of UniProt P06276 (whole entry, looked up): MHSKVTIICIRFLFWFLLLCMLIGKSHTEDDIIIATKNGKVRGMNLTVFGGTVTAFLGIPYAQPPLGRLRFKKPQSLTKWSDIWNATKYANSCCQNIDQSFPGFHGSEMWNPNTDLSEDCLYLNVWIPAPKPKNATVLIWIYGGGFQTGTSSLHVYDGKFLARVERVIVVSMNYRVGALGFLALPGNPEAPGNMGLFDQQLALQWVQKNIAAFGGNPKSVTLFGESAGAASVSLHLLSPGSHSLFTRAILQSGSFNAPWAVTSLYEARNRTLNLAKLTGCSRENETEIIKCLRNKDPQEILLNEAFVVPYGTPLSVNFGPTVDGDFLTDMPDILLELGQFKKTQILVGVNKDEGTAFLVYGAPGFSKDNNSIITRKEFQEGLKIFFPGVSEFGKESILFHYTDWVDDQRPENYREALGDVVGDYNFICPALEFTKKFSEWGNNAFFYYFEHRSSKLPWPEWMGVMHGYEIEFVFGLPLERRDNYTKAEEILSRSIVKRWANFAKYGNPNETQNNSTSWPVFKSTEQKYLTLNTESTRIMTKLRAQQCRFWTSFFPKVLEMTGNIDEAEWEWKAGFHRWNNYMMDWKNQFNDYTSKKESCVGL
Sequence of UniProt P50052 (whole entry, looked up): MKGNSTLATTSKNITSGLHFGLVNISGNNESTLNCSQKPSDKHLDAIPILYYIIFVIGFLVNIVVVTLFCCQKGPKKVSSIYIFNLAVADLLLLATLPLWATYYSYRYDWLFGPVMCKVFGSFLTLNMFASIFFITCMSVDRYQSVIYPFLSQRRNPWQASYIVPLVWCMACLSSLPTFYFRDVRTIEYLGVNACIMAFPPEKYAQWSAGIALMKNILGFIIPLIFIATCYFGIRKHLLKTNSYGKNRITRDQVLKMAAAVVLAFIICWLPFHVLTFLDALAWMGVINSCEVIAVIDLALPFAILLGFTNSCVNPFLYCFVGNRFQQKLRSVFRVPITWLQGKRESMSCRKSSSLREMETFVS
Sequence of UniProt P37136 (whole entry, looked up): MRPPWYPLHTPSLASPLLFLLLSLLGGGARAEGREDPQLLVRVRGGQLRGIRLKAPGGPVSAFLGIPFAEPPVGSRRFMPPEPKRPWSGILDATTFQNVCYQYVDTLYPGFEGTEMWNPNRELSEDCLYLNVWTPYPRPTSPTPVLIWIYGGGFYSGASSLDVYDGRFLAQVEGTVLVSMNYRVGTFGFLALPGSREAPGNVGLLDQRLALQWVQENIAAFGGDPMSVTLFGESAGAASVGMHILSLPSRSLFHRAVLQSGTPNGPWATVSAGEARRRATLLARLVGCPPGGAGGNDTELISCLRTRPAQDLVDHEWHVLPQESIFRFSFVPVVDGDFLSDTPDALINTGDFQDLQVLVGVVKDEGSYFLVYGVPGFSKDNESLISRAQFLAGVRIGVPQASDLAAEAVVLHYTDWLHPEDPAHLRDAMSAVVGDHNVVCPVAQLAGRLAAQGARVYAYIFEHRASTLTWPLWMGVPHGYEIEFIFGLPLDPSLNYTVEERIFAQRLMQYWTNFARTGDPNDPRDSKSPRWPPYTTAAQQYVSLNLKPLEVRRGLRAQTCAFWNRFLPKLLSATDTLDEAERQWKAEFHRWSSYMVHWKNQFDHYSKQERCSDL
Sequence of UniProt P14867 (whole entry, looked up): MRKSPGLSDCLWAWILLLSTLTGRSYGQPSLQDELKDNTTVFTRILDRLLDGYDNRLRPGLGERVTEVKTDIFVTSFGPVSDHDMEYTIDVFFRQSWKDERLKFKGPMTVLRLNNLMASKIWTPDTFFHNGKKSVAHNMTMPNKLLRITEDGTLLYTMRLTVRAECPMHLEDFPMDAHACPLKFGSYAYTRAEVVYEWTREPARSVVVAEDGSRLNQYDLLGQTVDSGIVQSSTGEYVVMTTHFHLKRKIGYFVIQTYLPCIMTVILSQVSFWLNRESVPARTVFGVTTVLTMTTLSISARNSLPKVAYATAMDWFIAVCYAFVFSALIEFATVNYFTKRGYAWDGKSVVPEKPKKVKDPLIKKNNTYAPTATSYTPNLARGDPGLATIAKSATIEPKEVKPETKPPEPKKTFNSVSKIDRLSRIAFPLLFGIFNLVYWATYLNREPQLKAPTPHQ
Sequence of UniProt P23141 (whole entry, looked up): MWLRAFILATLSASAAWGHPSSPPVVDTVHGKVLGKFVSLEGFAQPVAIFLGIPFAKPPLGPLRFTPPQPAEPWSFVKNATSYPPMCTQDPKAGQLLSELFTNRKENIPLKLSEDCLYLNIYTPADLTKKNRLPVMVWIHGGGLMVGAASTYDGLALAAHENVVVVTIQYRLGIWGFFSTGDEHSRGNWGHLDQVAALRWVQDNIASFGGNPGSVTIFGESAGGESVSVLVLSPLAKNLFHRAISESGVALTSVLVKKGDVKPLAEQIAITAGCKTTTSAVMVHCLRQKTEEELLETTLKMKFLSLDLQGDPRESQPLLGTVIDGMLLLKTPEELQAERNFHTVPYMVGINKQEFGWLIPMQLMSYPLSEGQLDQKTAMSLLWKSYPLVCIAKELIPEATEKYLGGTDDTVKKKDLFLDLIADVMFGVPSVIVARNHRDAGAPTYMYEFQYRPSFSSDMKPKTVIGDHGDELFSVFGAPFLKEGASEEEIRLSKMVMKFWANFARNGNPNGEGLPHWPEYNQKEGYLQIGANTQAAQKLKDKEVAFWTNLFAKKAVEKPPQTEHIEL
Sequence of UniProt P41143 (whole entry, looked up): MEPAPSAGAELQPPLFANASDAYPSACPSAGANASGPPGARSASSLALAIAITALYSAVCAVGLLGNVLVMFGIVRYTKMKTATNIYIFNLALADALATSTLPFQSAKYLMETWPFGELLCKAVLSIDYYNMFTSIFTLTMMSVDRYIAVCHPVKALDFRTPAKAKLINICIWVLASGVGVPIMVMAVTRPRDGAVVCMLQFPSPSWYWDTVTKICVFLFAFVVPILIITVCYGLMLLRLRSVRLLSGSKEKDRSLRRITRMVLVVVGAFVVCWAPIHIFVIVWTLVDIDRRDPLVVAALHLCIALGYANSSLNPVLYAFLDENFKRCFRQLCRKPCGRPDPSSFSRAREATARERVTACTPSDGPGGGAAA
Sequence of UniProt P28472 (whole entry, looked up): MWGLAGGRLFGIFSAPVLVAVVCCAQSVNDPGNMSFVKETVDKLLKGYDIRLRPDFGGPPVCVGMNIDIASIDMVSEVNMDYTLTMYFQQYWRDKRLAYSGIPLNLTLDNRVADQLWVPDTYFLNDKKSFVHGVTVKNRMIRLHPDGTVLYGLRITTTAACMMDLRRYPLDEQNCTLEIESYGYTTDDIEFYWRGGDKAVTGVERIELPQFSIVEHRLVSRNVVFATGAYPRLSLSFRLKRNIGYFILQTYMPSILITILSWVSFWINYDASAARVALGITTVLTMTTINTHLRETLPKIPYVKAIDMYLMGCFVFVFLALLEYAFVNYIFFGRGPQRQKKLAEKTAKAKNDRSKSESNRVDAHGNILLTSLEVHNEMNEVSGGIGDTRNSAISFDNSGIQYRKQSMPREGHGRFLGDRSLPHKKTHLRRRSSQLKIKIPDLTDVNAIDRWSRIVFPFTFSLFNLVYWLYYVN
Sequence of UniProt Q5VYX0 (whole entry, looked up): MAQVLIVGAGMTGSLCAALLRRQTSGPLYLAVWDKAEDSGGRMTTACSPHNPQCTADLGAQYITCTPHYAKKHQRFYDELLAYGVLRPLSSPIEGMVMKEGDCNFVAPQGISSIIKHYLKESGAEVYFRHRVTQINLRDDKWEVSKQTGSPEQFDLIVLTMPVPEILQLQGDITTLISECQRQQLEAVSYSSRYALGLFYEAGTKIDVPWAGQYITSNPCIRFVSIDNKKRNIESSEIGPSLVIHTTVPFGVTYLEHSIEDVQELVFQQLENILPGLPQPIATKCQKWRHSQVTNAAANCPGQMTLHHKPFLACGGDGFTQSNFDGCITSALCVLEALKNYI
Sequence of UniProt Q9BXR0 (whole entry, looked up): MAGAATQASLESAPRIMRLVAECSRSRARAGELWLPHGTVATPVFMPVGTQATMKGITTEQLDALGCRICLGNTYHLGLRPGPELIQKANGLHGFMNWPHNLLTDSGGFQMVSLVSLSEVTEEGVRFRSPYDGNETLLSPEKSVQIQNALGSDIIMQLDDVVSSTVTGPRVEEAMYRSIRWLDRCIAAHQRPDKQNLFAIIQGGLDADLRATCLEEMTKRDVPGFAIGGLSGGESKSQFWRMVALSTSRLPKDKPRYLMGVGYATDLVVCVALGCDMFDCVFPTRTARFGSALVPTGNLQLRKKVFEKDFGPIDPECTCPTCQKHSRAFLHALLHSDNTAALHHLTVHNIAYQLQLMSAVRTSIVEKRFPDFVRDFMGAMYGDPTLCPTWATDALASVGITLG

| Substance | target or system | assay | system | setting | endpoint | result |
| --- | --- | --- | --- | --- | --- | --- |
| pregnenolone sulfate | GABA-A receptor alpha-1/beta-3 (GABRA1/GABRB3, Homo sapiens, UniProt P14867+P28472) | [3H]muscimol binding, modulator |  | added: [3H]muscimol 2 nM | EC50 | > 500 µM |
| evodiamine | BCHE | enzyme activity, inhibitor, fluorescence |  |  | IC50 | 19.5 ± 4.1 µM |
| human angiotensin II | AGTR2 (Homo sapiens, UniProt P50052) | radioligand binding |  | concentration not given | inhibition | 100% |
| insulin |  |  | female C57BL/6J mice | dose not given, endogenous, population model, added: glucose 0.35 g/kg iv | volume of distribution | 13 mL |
| Ac-DEVD-CHO | Caspase-7 (CASP7, Homo sapiens, UniProt P55210) | inhibitor |  |  | IC50 | 0.00549 µM |
| propranolol | Caco-2 |  |  |  | Papp | 14.1 ×10⁻⁶ cm/s |
| phoxim-oxon | Ache (Rattus norvegicus, UniProt P37136) | inhibitor | rat, postnatal day 12, rat brain homogenate | 15 min, 37 °C | IC50 | 0.052 µM |
| benzalkonium bromide | BCHE | enzyme activity, inhibitor, fluorescence |  |  | IC50 | 9.25 ± 6.32 µM |
| SNC80 | Delta-type opioid receptor, with Gi2 (OPRD1, Homo sapiens, UniProt P41143) | Gi2 activation, agonist |  |  | EC50 | 0.00194 µM |
| corynantheidine | CES1 (Homo sapiens, UniProt P23141) | enzyme activity, inhibitor |  | added: oseltamivir substrate | Ki | 12.5 µM |
| ADP-ribose | Renalase (RNLS, Homo sapiens, UniProt Q5VYX0) | reductive half-reaction, inhibitor |  | added: 6-hydro-NAD 173 µM | Kd | 12400 µM |
| deucravacitinib |  | multiple ascending dose | healthy human | oral, 12 mg twice daily | subjects with influenza-like illness | 11.1% |
| biopterin | QTRT1 (Homo sapiens, UniProt Q9BXR0) | queuine exchange, inhibitor, Dixon plot |  | pH 7.3, 37 °C, added: queuine, 10 µM tRNA | Ki | 8.72 ± 0.62 µM |
| mitragynine | Cytochrome P450 2C9 (CYP2C9, Homo sapiens, UniProt P11712) | diclofenac 4'-hydroxylation, inhibitor | human liver microsomes |  | IC50 | > 45 µM |
| Ac-DEVD-CHO | Caspase-3 (CASP3, Homo sapiens, UniProt P42574) | enzyme activity |  |  | IC50 | 0.00167 µM |
| forsythoside B | LDHA (Homo sapiens, UniProt P00338) | enzyme activity, inhibitor |  |  | IC50 | 225 ± 19.7 µM |
